Measured values pooled from the literature.
Protocols differ between the studies behind these lines. “And” joins repeats or separate records; there may be more than shown. ± gives the spread as reported. Values after ≈ are worked out from the molar mass of the structure shown.

Compound = COc1cc(Cc2cnc(N)nc2N)cc(OC)c1OC.O=c1[nH]cc(F)c(=O)[nH]1; organism = Shigella dysenteriae; assay = broth microdilution; conditions = 48 h; quantity = MBC; result = 16 µg/mL
Compound = CC[C@@H](C)[C@@H](NC(=O)[C@@H](CCCCN)NC(=O)[C@@H](CCCCN)NC(=O)[C@@H](CC(C)C)NC(=O)[C@@H](Cc1c[nH]c2ccccc12)NC(=O)CN)C(=O)NCC(=O)N[C@H](CCCCN)C(=O)N[C@H](CCCCN)C(=O)N[C@@H](C(=O)N[C@H](CCC(=O)O)C(=O)N[C@H](CCCNC(=N)N)C(=O)N[C@@H](C(=O)NCC(=O)N[C@H](CCC(N)=O)C(=O)N[C@H](Cc1c[nH]cn1)C(=O)N[C@@H](C(=O)N[C@H](CCCNC(=N)N)C(=O)N[C@H](CC(=O)O)C(=O)N[C@H](C)C(=O)N[C@@H](C(=O)N[C@@H](C(=O)N[C@H](CCC(N)=O)C(=O)N[C@@H](C(=O)N[C@@H](C(=O)NCC(=O)N[C@@H](C(=O)N[C@H](C)C(=O)N[C@H](CCC(N)=O)C(=O)N[C@H](CCC(N)=O)C(=O)N[C@H](C)C(=O)N[C@H](C)C(=O)N[C@H](CC(N)=O)C(=O)N[C@@H](C(=O)N[C@H](C)C(=O)N[C@H](C)C(=O)N[C@@H](C(=O)N[C@H](CC(C)C)C(=O)N[C@H](CCCCN)C(N)=O)[C@H](C)O)C(C)C)C(C)C)[C@H](C)CC)[C@H](C)O)[C@H](C)CC)[C@H](C)O)[C@H](C)O)C(C)C)[C@H](C)CC; organism = Klebsiella pneumoniae; assay = broth microdilution; test system = DSM 30104, CAMHB; quantity = MIC; result = > 1020 µg/mL
Compound = CC(NC(=O)NNS(=O)(=O)c1ccc(OC(F)F)cc1)(C(F)(F)F)C(F)(F)F; organism = Tacaribe mammarenavirus; assay = viral replication; quantity = EC50; result = 0.066 µg/mL
Compound = Cc1ccc(NS(=O)(=O)c2c(C(=O)N3CCCCCC3)c(C)n(C)c2C)c(Cl)c1; organism = Vaccinia virus; assay = viral infection; test system = HaCaT; conditions = 1.235 µM, 36 h; how to read = baseline: untreated; quantity = infection; result = 18% and 30.9% and 24.5%
Compound = CC(C)Oc1ccc(-n2cnc3cc(/C=C\c4ccc(C(C)(C)O)cc4)ccc32)cc1; organism = Lassa mammarenavirus; assay = viral replication; test system = Huh-7; conditions = concentration not given; quantity = Emax; result = 97.5 ± 3.26%
Compound = CC(C)CC(C(=O)N1CC2(CC1C#N)C(=O)Nc1ccccc12)N(C)C(=O)c1cc2c(F)cc(F)c(F)c2[nH]1 (stereo not drawn); organism = SARS-CoV-2; assay = viral replication, infectious virus; test system = Vero E6; conditions = 0.333 µM; quantity = inhibition; result = 97%
Compound = O=C(C=Cc1ccc(O)c(O)c1)OC1CC(O)(C(=O)O)CC(OC(=O)C=Cc2ccc(O)c(O)c2)C1O (stereo not drawn); organism = Severe acute respiratory syndrome coronavirus 2; assay = cytopathic effect; test system = Vero C1008; conditions = 25 µM; quantity = inhibition; result = 0%
Compound = O=[N+]([O-])c1ccc(-n2nc(-c3ccc(F)cc3)cc2-c2ccc(F)cc2)c([N+](=O)[O-])c1; organism = Japanese encephalitis virus; test system = SA14-14-2, BALB/c mice, brain; conditions = ip, 100 mg/kg/day; how to read = baseline: untreated; quantity = viral RNA reduction; result = ~43%
Compound = CO/C1=C\C(C)=C\[C@@H](C)[C@@H](O)[C@@H](C)C/C(C)=C/C=C/[C@H](OC)[C@@H]([C@@H](C)[C@@H](O)[C@H](C)C(=O)/C=C/[C@H](C)[C@H](O)C(C)C)OC1=O; organism = SARS-CoV-2 Omicron BA.5; assay = viral replication, dsRNA staining; test system = Calu-3; quantity = EC50; result = 0.0386 µM
Compound = N#Cc1ncn(C2OC(CO)C(O)C2O)c1C#N (stereo not drawn); organism = Mammarenavirus lassaense; assay = viral replication; test system = Vero; conditions = 48 h; quantity = IC90; result = > 50 µg/mL
Compound = CN1CCN(C(=O)N[C@@H](Cc2ccccc2)C(=O)N[C@H](/C=C/S(=O)(=O)c2ccccc2)CCc2ccccc2)CC1; organism = Severe acute respiratory syndrome coronavirus; assay = cytopathic effect, inhibitor; test system = Vero 76; quantity = IC50; result = < 0.05 µM
Compound = COc1ccc(C2=[N+]([O-])c3ccccc3N3CC(C)(C)CN=C23)cc1; organism = Clostridium perfringens; assay = microbial growth; quantity = MIC50; result = 4 µg/mL (≈ 11.9 µM)
Compound = O=S(=O)(O)c1c2ccccc2c(-c2c3nc(c(-c4c5ccccc5c(S(=O)(=O)O)c5ccccc45)c4ccc([nH]4)c(-c4c5ccccc5c(S(=O)(=O)O)c5ccccc45)c4nc(c(-c5c6ccccc6c(S(=O)(=O)O)c6ccccc56)c5ccc2[nH]5)C=C4)C=C3)c2ccccc12; organism = vaccinia virus; assay = viral replication; test system = WR; conditions = 50 µg/mL, 16 h; quantity = inhibition; result = 67 ± 15%
Compound = [O-][N+]1=C(c2ccsc2)C2=NCCCN2c2ccccc21; organism = Clostridium perfringens; assay = microbial growth; quantity = MIC50; result = 4 µg/mL (≈ 14.1 µM)
Compound = N#Cc1ncn(COCCOCc2ccccc2)c1C#N; organism = Mammarenavirus lassaense; assay = viral replication; test system = Vero; conditions = 48 h; quantity = IC90; result = 28 µg/mL (≈ 99.2 µM)
Compound = COC(=O)CC1C2CCCN3CCCC(CN1Cc1ccc(Cl)cc1)C23.Cl.Cl (stereo not drawn); organism = Ebola virus; conditions = EBOV GP pseudotyped HIV; how to read = baseline: CC50 over IC50; quantity = selectivity index; result = > 7.12
Compound = O=[N+]([O-])c1ccc(-n2nc(-c3ccccc3)cc2-c2ccc(F)cc2)c([N+](=O)[O-])c1; organism = Japanese encephalitis virus; assay = plaque; test system = SA14-14-2; conditions = 5 µM, 72 h; how to read = baseline: control; quantity = viral titre reduction; result = ~59%
Compound = CCOP(=O)(COCCn1cnc(C#N)c1C#N)OCC; organism = Mammarenavirus lassaense; assay = viral replication; test system = Vero; conditions = 48 h; quantity = IC90; result = 43 µg/mL (≈ 138 µM)
Compound = CC[C@H](C)[C@H](NC(=O)[C@H](C)NC(=O)[C@H](CCC(=O)O)NC(=O)[C@H](CCC(=O)O)NC(=O)[C@H](CC(C)C)NC(=O)[C@H](CCCCN)NC(=O)[C@H](CCCCN)NC(=O)[C@H](CCSC)NC(=O)[C@H](CCC(=O)O)NC(=O)[C@H](Cc1ccc(O)cc1)NC(=O)[C@H](CCC(=O)O)NC(=O)[C@H](CC(C)C)NC(=O)[C@H](CC(=O)O)NC(=O)[C@H](CC(C)C)NC(=O)[C@H](Cc1ccccc1)NC(=O)[C@@H](NC(=O)[C@@H](NC(=O)[C@H](CC(N)=O)NC(=O)[C@@H](NC(=O)[C@H](CCC(N)=O)NC(=O)[C@H](CC(=O)O)NC(=O)[C@H](CC(C)C)NC(=O)[C@H](CO)NC(C)=O)[C@@H](C)CC)C(C)C)[C@@H](C)O)C(=O)N[C@@H](CCCCN)C(=O)N[C@@H](CCCCN)C(=O)N[C@@H](CC(C)C)C(=O)N[C@@H](CCC(=O)O)C(=O)N[C@@H](CCC(=O)O)C(=O)N[C@@H](CO)C(=O)N[C@@H](Cc1ccc(O)cc1)C(=O)N[C@H](C(=O)N[C@@H](CC(=O)O)C(=O)N[C@@H](CC(C)C)C(=O)N[C@@H](CCCCN)C(=O)N[C@@H](CCC(=O)O)C(=O)N[C@@H](CC(C)C)C(=O)NCC(=O)N[C@@H](CO)C(=O)NCC(=O)N[C@@H](CCCCNC(=O)[C@H](CSSC[C@H](NC(C)=O)C(=O)NCCCC[C@H](NC(=O)CNC(=O)[C@H](CO)NC(=O)CNC(=O)[C@H](CC(C)C)NC(=O)[C@H](CCC(=O)O)NC(=O)[C@H](CCCCN)NC(=O)[C@H](CC(C)C)NC(=O)[C@H](CC(=O)O)NC(=O)[C@@H](NC(=O)[C@H](Cc1ccc(O)cc1)NC(=O)[C@H](CO)NC(=O)[C@H](CCC(=O)O)NC(=O)[C@H](CCC(=O)O)NC(=O)[C@H](CC(C)C)NC(=O)[C@H](CCCCN)NC(=O)[C@H](CCCCN)NC(=O)[C@@H](NC(=O)[C@H](C)NC(=O)[C@H](CCC(=O)O)NC(=O)[C@H](CCC(=O)O)NC(=O)[C@H](CC(C)C)NC(=O)[C@H](CCCCN)NC(=O)[C@H](CCCCN)NC(=O)[C@H](CCSC)NC(=O)[C@H](CCC(=O)O)NC(=O)[C@H](Cc1ccc(O)cc1)NC(=O)[C@H](CCC(=O)O)NC(=O)[C@H](CC(C)C)NC(=O)[C@H](CC(=O)O)NC(=O)[C@H](CC(C)C)NC(=O)[C@H](Cc1ccccc1)NC(=O)[C@@H](NC(=O)[C@@H](NC(=O)[C@H](CC(N)=O)NC(=O)[C@@H](NC(=O)[C@H](CCC(N)=O)NC(=O)[C@H](CC(=O)O)NC(=O)[C@H](CC(C)C)NC(=O)[C@H](CO)NC(C)=O)[C@@H](C)CC)C(C)C)[C@@H](C)O)[C@@H](C)CC)[C@@H](C)CC)C(N)=O)NC(C)=O)C(N)=O)[C@@H](C)CC; organism = SARS-CoV-2 Wuhan; assay = viral replication; test system = VeroE6/TMPRSS2 cells; how to read = baseline: corresponding monomer; quantity = fold change IC50 vs corresponding monomer; result = 1.07
Compound = [O-][N+]1=C(c2ccc(Cl)cc2)C2=NCCCN2c2ccccc21; organism = Clostridium perfringens; assay = microbial growth; quantity = MIC50; result = 32 µg/mL (≈ 103 µM)
Compound = NNC(=O)c1ncn(C2OC(CO)C(O)C2O)c1C(=O)NN (stereo not drawn); organism = Mammarenavirus lassaense; assay = viral replication, inhibitor; test system = Vero; conditions = 48 h; quantity = IC50; result = 35 µg/mL

Repeated from above:
Compound = N#Cc1ncn(COCCOCc2ccccc2)c1C#N; organism = Mammarenavirus lassaense; assay = viral replication; test system = Vero; conditions = 48 h; quantity = IC90; result = 28 µg/mL (≈ 99.2 µM)
Compound = COC(=O)CC1C2CCCN3CCCC(CN1Cc1ccc(Cl)cc1)C23.Cl.Cl (stereo not drawn); organism = Ebola virus; conditions = EBOV GP pseudotyped HIV; how to read = baseline: CC50 over IC50; quantity = selectivity index; result = > 7.12
Compound = O=[N+]([O-])c1ccc(-n2nc(-c3ccccc3)cc2-c2ccc(F)cc2)c([N+](=O)[O-])c1; organism = Japanese encephalitis virus; assay = plaque; test system = SA14-14-2; conditions = 5 µM, 72 h; how to read = baseline: control; quantity = viral titre reduction; result = ~59%
